Published values from different studies.
A part holds a random share of what one study measured. Changes are numbered by the printed parent chain.

Series 1 — method: protein binding microarray; form: double-stranded DNA, one strand shown; matrix: in vitro; concentration: not given; reference: not given; reading: higher = stronger binding
Target: Histone acetyltransferase KAT6A, both winged helices, GST fusion (KAT6A, Homo sapiens, UniProt Q92794, residues 1-181)
Notes: 8-mer, flanks averaged, mean of 2 arrays, mostly near background
Residues (chain): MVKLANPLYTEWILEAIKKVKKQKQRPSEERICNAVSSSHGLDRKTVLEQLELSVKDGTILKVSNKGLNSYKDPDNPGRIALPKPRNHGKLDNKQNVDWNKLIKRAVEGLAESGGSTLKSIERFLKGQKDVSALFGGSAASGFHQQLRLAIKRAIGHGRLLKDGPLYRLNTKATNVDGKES
Oligonucleotide | E-score
CTTTGGAA | -0.00741
AAAAGCAC | -0.156
AACGCGGA | 0.274
CTTTTCCC | -0.13
CTCCGCCC | 0.14
CGACCTGC | 0.0194
CTGAGCGA | 0.0927
GCATGAAC | 0.0734
CACGGAGA | 0.184
AAACTGAT | -0.0331
GTGTGCCA | -0.0317
AGCCCATC | -0.224
TGTGGTAA | -0.12
CATAGTGA | -0.18
CTCTCAAC | -0.0789
GATTCGAA | -0.0151
GCAGGGCC | 0.0159
ACGTACTG | -0.146
CAGTTTTA | -0.0835
CAAGCATG | -0.127
ACCGGGGA | 0.159
GATGCGGA | 0.206
AACCTATT | -0.0932
CTGAATCA | -0.151
CTGGGCGA | -0.0516

Series 2 — method: RNA Bind-n-Seq; form: RNA; matrix: in vitro; concentration: 200 nM; notes: whole 134-nt RNA, ends assumed; added: 150 mM LiCl; reference: input library; reading: higher = stronger binding; library: 7-deaza-guanosine replaces G
Target: Fragile X messenger ribonucleoprotein 1, C-terminal low-complexity region (Fmr1, Mus musculus, UniProt P35922)
Shared flanks, not repeated: GGGAGUUCUACAGUCCGACGAUC … UGGAAUUCUCGGGUGUCAAGG
Oligonucleotide | log2 enrichment
AGUCCUGUGCUACACAUCGUAUGUACCGAAUCGGGAAAAAAAGGGUUUUUGGGAGGGAAAGUAUUAUGUUACGCCGUUCGGAUCUGCACU | -1.87
UUCAGUUGGAUGGAUUUAUUGCUCGAAACUGGGCCAAUCAAAGAUCAGCUUUGGGAAGUGCUCUUGAUCCACUUGCUGAUAAAAUACUUA | -2.93
GCAGGAAGUAAAAACAAAUGGAAAUGCUUCGGAUAGUGAAAGGGGUGGGGGUUGCUAAGGAAAGGGUGGGAUGGGAGUGGGUAAAGAGUU | 1.81
UUCCUCAAGUCCUGUGCUACACAUCGUAUGUACCGAAUCGGAGGUGGAGGAAAGUAUUAUGUUACGCCGUUCGGAUCUGCACUUCCAGCA | -2.31
AAGUCCUGUGCUACACAUCGUAUGUACCGAAUCGGUUUUUGGAAAAAGGAAAAAGGAAAGUAUUAUGUUACGCCGUUCGGAUCUGCACUU | -2.01
CCUCAAGUCCUGUGCUACACAUCGUAUGUACCGAAUCGGGUUGGUUGGGUUGGAAAGUAUUAUGUUACGCCGUUCGGAUCUGCACUUCCA | -0.542
CAAGUCCUGUGCUACACAUCGUAUGUACCGAAUCGGAAAAAGGUUUUUGGAAAGGAAAGUAUUAUGUUACGCCGUUCGGAUCUGCACUUC | -2.07
CCUCAAGUCCUGUGCUACACAUCGUAUGUACCGAAUCGGAGGGAGGGGAGGGAAAGUAUUAUGUUACGCCGUUCGGAUCUGCACUUCCAG | -0.869

Series 3 — target: CCND2, cyclin fold, Cln2 fusion (human); method: yeast growth competition, sequencing; matrix: yeast; notes: weak parent motif; reference: not given; reading: higher = stronger binding
Parent: FZR1 docking peptide (human); QDYERRLLRQIVI
Substitution | normalised enrichment score
QDAERRLLRQIVI [Y3A] | 0.131
QDYERRLLAQIVI [R9A] | -0.11
QDYERRLLRQIAI [V12A] | 0.147
QDYERALLRQIVI [R6A] | 0.227
QDYERRLLRQIVA [I13A] | -0.229
QDYEKRLFRQIVI [R5K L8F] | -0.2
QDYERRLLRQAVI [I11A] | 0.413

Series 4 — method: universal PBM; form: double-stranded DNA, one strand shown; matrix: in vitro; concentration: 600 nM; reading: higher = stronger binding
Target: Sal-like protein 4, full length isoform A (SALL4, Homo sapiens, UniProt Q9UJQ4, residues 1-1053)
Sequence of UniProt Q9UJQ4 (whole entry, looked up): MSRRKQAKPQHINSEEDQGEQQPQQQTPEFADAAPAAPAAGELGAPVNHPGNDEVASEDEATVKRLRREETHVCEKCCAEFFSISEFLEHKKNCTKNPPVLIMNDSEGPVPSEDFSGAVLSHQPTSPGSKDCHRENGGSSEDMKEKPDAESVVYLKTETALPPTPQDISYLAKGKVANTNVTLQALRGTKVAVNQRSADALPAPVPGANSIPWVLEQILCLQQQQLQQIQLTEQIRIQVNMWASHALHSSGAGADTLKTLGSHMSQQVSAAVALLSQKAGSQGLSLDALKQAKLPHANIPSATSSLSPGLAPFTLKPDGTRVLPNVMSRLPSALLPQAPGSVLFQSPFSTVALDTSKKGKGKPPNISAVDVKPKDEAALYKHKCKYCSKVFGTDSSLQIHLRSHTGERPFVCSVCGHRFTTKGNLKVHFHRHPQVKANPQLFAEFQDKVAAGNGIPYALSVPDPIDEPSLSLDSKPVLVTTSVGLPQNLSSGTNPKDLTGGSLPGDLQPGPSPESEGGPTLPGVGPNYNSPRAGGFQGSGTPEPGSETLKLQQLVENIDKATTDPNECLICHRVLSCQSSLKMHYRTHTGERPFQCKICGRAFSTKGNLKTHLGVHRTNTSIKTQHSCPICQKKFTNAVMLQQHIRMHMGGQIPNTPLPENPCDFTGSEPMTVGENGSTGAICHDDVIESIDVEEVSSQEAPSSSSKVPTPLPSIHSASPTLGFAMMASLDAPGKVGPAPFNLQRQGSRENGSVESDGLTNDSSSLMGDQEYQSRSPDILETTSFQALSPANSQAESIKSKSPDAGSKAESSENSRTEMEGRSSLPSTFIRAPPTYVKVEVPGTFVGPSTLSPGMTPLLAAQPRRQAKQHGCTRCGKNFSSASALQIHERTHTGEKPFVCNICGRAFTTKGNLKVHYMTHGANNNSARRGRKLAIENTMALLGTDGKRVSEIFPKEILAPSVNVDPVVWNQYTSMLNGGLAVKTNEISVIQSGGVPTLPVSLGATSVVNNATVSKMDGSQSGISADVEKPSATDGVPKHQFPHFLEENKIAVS
Notes: 8-mer, flanks averaged, mean of replicates
Oligonucleotide | E-score
CATCTAGA | 0.0979
GCGGCGCA | -0.172
AGACTATG | 0.0384
TCTACAGA | 0.0308
GCATGGCC | -0.208
AGGGAGCG | -0.232
ACCATCTG | -0.252
AAAACTCC | -0.0566
ACCAAGAT | 0.0835
AGGCCATA | -0.00551
CAAACGCG | -0.0552
AAAGCTTT | 0.0887
CCCCAACA | -0.157
CCCTGCCA | -0.124
ATTGTAGC | 0.068
GTCTGCAC | -0.122
CCAGACAA | -0.0677
AGAGTACA | 0.0345

Series 5 — method: RNA Bind-n-Seq; form: RNA; matrix: in vitro; concentration: 365 nM; reference: no-protein control; reading: higher = stronger binding
Target: RNA binding protein fox-1 homolog 2, RRM domain, GST-SBP tag (RBFOX2, Homo sapiens, UniProt O43251-10, residues 100-194)
Notes: natural RNA segment, single round, ends assumed
Shared flanks, not repeated: GGGAGUUCUACAGUCCGACGAUC … UGGAAUUCUCGGGUGCCAA
Target sequence (chain): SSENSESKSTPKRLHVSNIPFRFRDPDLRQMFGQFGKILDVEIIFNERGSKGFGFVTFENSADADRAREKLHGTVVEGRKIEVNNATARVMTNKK
Oligonucleotide | RBNS enrichment (R)
GCCCGUUUUUACUCAGACAGGGACAGUGUUCACCUACUUGAUACUGCCGUGUUUCUUACCCUCCCUUGAAGUUUCUCUAAGCUCAUCACAGCCUAGAGUUCAGGAAAGUU | 0.271
UCUUACUCUGUCCACUCUUGUUCAAGUAUCUAACUCUUCUGGAAACCAAAUAGGCUUUAGAAGAGAUUAUCCUAUAUUCCUAUCAGUAUAAUACUAAAAUGUAACUUUUU | 0.741
CACCCUGAGAGACCUGGGCAGCCAGGCUUUCCCCAGGCUGCCCGCCCUGAGCCAGGUGCCACCACUGUAAGGAAAUGCCUUCAGAAAUUCACUGGUUCCUUCAAAGCGCU | 0.283
UGAGCAGCGCGUCCUAAGCACCUCCCGCUCCGGUGACCCCAUCCUUGCACACCUGACUCUGUCACUCAAGCCUUUCUCCACCAGGCCCCUCAUCUGAAUACCAAGCACAG | 1.24
CUUUCAGAUUUCCAUAAAGCCAGCAAUCAGAAAGGAUCUCUCUUCCAUACCACUGUUCUUGCUAAAAGGAAGCUGCAUAUUUGUGUUCUUUCAUCUGUGGCUCUUUGCUA | 0.513
GGAGCCAUUCCUGUAGUGAAGGGGGGGUUAUUAUACCCCAGGGCUUCAGAACUCACAGGACAGGGAUUGCUGGAGAACACUGCGAGCUGUGGAGCACACUUAAGGGAUGG | 1.08
AGGUCUGUCACUAGGCAGGAAACCAUGUAGGUAAGUGUAGGACCUGCUUUGCUUAGCCACUACUGGAUUUGUUUGGCUGGCCACUGGGUGGCAGCAUAGGUUCUAAUUUU | 0.485
ACCACAGGUCUAUGUGUGCUGGGGGAUGUCAGGUGCCACCCAACGCUGUCCUGGUGGUAUUUACAAUGACAUCCUCCUCCUCCAUCACUCCAGGGGUGGUGUCUCGGCCG | 0.383

Series 6 — method: RNA Bind-n-Seq; form: RNA; matrix: in vitro; concentration: 20 nM; notes: 6-mer, flanks averaged, single round; added: 150 mM LiCl; reference: input library; reading: higher = stronger binding
Target: TAR DNA-binding protein 43, full length, His tag (TARDBP, Homo sapiens, UniProt Q13148, residues 1-414)
Oligonucleotide | 6-mer enrichment (R)
CAGGCU | 0.87
UUAGUU | 1.09
CGCAGC | 0.916
UGCGUU | 1.13
CGGCUA | 0.891
UCUUAC | 0.877
CCGUCU | 0.872
UCUAUU | 1.01
GGGGUU | 1.25
AAACUU | 0.87

For quick reference, copied from above (series 2):
Oligonucleotide | log2 enrichment
AGUCCUGUGCUACACAUCGUAUGUACCGAAUCGGGAAAAAAAGGGUUUUUGGGAGGGAAAGUAUUAUGUUACGCCGUUCGGAUCUGCACU | -1.87
UUCAGUUGGAUGGAUUUAUUGCUCGAAACUGGGCCAAUCAAAGAUCAGCUUUGGGAAGUGCUCUUGAUCCACUUGCUGAUAAAAUACUUA | -2.93
GCAGGAAGUAAAAACAAAUGGAAAUGCUUCGGAUAGUGAAAGGGGUGGGGGUUGCUAAGGAAAGGGUGGGAUGGGAGUGGGUAAAGAGUU | 1.81
UUCCUCAAGUCCUGUGCUACACAUCGUAUGUACCGAAUCGGAGGUGGAGGAAAGUAUUAUGUUACGCCGUUCGGAUCUGCACUUCCAGCA | -2.31
AAGUCCUGUGCUACACAUCGUAUGUACCGAAUCGGUUUUUGGAAAAAGGAAAAAGGAAAGUAUUAUGUUACGCCGUUCGGAUCUGCACUU | -2.01
CCUCAAGUCCUGUGCUACACAUCGUAUGUACCGAAUCGGGUUGGUUGGGUUGGAAAGUAUUAUGUUACGCCGUUCGGAUCUGCACUUCCA | -0.542
CAAGUCCUGUGCUACACAUCGUAUGUACCGAAUCGGAAAAAGGUUUUUGGAAAGGAAAGUAUUAUGUUACGCCGUUCGGAUCUGCACUUC | -2.07
CCUCAAGUCCUGUGCUACACAUCGUAUGUACCGAAUCGGAGGGAGGGGAGGGAAAGUAUUAUGUUACGCCGUUCGGAUCUGCACUUCCAG | -0.869
